Published values collected from several papers.
Each line is one published result; not all experiments were run side by side. Values joined by “and” are separate records of one study, mostly repeats; a detail may differ. ± gives the spread as reported.

`Cn1c(=O)n(C2CCC(=O)NC2=O)c2ccc(C3CCN(CC(=O)Nc4cccc(CS(=O)(=O)N5CC[C@H](Nc6cccc(-c7sc(C(=O)O)c(OCC(=O)O)c7Cl)c6)CC5(C)C)c4)CC3)cc21` (stereo partly drawn) has a fold change of 1.19 and 1.17 and 1.18 and 1.12 (B16-F10; HTRF, measured: phospho-STAT1 Tyr701; 0.005 µM, together with: IFN-γ; baseline: DMSO).
The GI50 of `O=C(C[Se]C(=O)c1ccccc1Nc1ccccc1)Nc1cccc(C(F)(F)F)c1` is reported as 2750 nM (NCI60 colon subpanel; NCI60 five-dose screen).
`O=S1(=O)CC2CCCCC2CS1` (stereo not drawn) has a viability of 87.6% (MDA-MB-468; MTT; 0.391 µM, 72 h).
With `CCn1ccc(C2CCCN2S(=O)(=O)c2cc(C)c(C)cc2C)n1` (stereo not drawn) the inhibition was < 0.5% (human monocytes; phagocytosis of anti-D RBCs; 5 µM, lab-synthesized sample).
Under “log2 fold change”, `Cn1ncc2cc(-c3cncc(Cl)c3N3CCC4(CCNC4=O)CC3)ccc21` is recorded as 1.67 (LS174T; gene expression, microarray, measured: INHBB mRNA; concentration not given, 4 h; baseline: untreated cells).
`CC(C)Cc1ccc(C(C)C(=O)[Se]CC(=O)Nc2cccc(C(F)(F)F)c2)cc1` (stereo not drawn) has a GI50 of 5150 nM (NCI60 colon subpanel; NCI60 five-dose screen).
`O=C1Nc2ccccc2C1(c1c[nH]c2ccccc12)c1c[nH]c2ccccc12` — result for IL-6 induction: “increased” (human monocytes; 5 µM; baseline: DMSO).
For `Cc1ccc(-n2cc(CSc3nc4ccccc4n3Cc3cn(-c4ccc(C)cc4)nn3)nn2)cc1`, the cytotoxicity was 60.6% (MDA-MB-231; MTT; 7.81 ppm).
For `O=C(O)C1OC(Oc2cc(O)c3c(=O)c(O)c(-c4ccccc4)oc3c2)C(O)C(O)C1O` (stereo not drawn), the Jmax was 31.4 ± 2.1 pmol/mg/min (MDCKII-UGT1A1/MRP2 cells; glucuronide efflux, substrate).
For `COc1cc(N2CCN(C(=O)C3CCCN3)CC2)ccc1Nc1ncc(Cl)c(Nc2ccccc2P(C)(C)=O)n1` (stereo not drawn), “late apoptotic cells” read 3.16% and 3.74% and 3.43% (NCI-H3122; annexin V/PI flow cytometry; 500 nM, 24 h).
For `Cc1cc(Cl)cc(-c2ccnc3cc(CN4C(=O)C5C(C4=O)C5(C)C)sc23)c1C[C@@H]1CNCCO1` (stereo partly drawn), “G1 phase cells” read 61.1% (CHP-212 parental; PI flow cytometry; 0.1 µM, 24 h).
`CN1CCCNC(=O)c2cccc(c2)C(=O)NCCCN(C)CCCNc2cccc3c2C(=O)c2cccc(c2C3=O)NCCC1` — result for “log2 fold change”: -0.597 (SAS; RNA-Seq, measured: SMG5 mRNA; 1 µM, 6 h; baseline: untreated cells).
`CC(=O)Oc1ccccc1C(=O)[Se]CC(=O)Nc1cccc(C(F)(F)F)c1` — result for “mean growth percent”: -10.2% (NCI60 colon subpanel; cell growth; 10 µM, 48 h, one-dose).
With `CCN(CC)CC(=O)Nc1cccc(-n2cc(-c3ccc4ccc(-c5cn(-c6cccc(NC(=O)CN(CC)CC)c6)nn5)cc4c3)nn2)c1` the fold regulation was -1.34 (RCC4; PCR angiogenesis array, measured: EFNB2; 5 x IC50, 4 h, normoxia; baseline: untreated).
`CNC(=O)CCN(Cc1ccc(C(F)F)cc1)C(=O)c1cc2c(OC)ccc(-c3ccc(=O)n(C)c3)c2s1`: “BRD4 ChIP-seq tag count” 62.9 a.u. (murine AML cells; BRD4 chromatin occupancy, ChIP-seq, measured: BRD4 at Ift57 locus; concentration not given, chr16:49768114-49777591; baseline: DMSO, higher = more occupancy).
The IC50 of `CNS(=O)(=O)Nc1nccc(Cc2c(C)c3ccc(Oc4ncccc4F)cc3oc2=O)c1F` is reported as > 1000 nM (Raji; cell viability; 7 days).
The IC50 of `CC(C)c1ccc(N(C)c2ccc3c(c2)OCC[C@H]3CNc2cnccc2C(=O)O)cc1` is reported as 60.3 nM (HSC-3; cell viability; 7 days).
For `C#CCCCC(O)/C=C/C(=O)NC1(c2ccc(-c3nc4ccn5c(=O)[nH]nc5c4cc3-c3ccccc3)cc2)CCC1` (stereo not drawn), “cells in G0/G1 phase” read 43.7% (MDA-MB-468; flow cytometry, PI staining; EC60 concentration, 72 h, DMSO 39.2).
For `CCC(=CCc1c(O)cc2c(c1O)C(=O)CC(c1ccc(O)cc1)O2)CC` (stereo not drawn), the inhibition was 2.08% (HeLa; cell growth or viability, MTT; 0.781 µM, 48 h).
`Cn1ncc(-c2ccc3c(=O)[nH]nc(CN)c3c2)c1-c1c(F)c(Cl)cc(OC2CC2)c1C#N` gave an IC50 of 60 nM (CMK; cell viability, inhibitor, CellTiter-Glo; 120 h, baseline-subtracted).
With `CO[C@@H]1[C@@H](OC(N)=O)[C@@H](O)[C@H](Oc2ccc3c(O)c(NC(=O)c4ccc(O)c(CC=C(C)C)c4)c(=O)oc3c2C)OC1(C)C` the colony count was 0.1 (DLD-1 BRCA2-/-; 200 µM, replicate 2).
The pERK/ERK ratio of `CN(C)c1ccc(-n2cc(COC(=O)[C@]3(C)C=C(C(=O)OC(C)(C)C)C(=O)CC3)nn2)cc1` is reported as 0.214 (HeLa; quantitative western blot; concentration not given, 10 (unit not given), together with: EGF).
`Cc1ncsc1-c1ccc(C(C)NC(=O)C2CC(O)CN2C(=O)C(NC(=O)CCCCCCCCCCN2CCCC(Nc3ncc(Cl)c(Nc4ccccc4S(=O)(=O)C(C)C)n3)C2)C(C)(C)C)cc1` (stereo not drawn): “log2 fold change” -1.07 (22Rv1; RNA-seq, measured: PRKAB1 mRNA; concentration not given; baseline: DMSO).
`Fc1cncc(-c2ccc3[nH]c4ncnc(N[C@H]5CC[C@H](N6CCOCC6)CC5)c4c3c2)c1`: “STAT3 phosphorylation and IL-6 secretion” “decreased” (TMD8; concentration not given).
For `COC(=O)c1cc(NC2=NC(=O)C(=Cc3ccc(C)cc3)S2)ccc1OC(C)=O`, the metabolite level was -0.44 fold change (MCF7; GC-MS, measured: L-Glutamic acid; 1 µM; baseline: DMSO).
`NC(Cc1ccccc1)C(=O)N1CC(=Cc2ccc(Cl)c(Cl)c2)C(=O)C(=Cc2ccc(Cl)c(Cl)c2)C1` (stereo not drawn) has an EC50 of 1510 nM (BRD4-HiBiT cells; BRD4 degradation rescue, inhibitor; 8 h, together with: dBET6 500 nM).
Under “log2 fold change”, `C=CC(=O)N1CCCC(n2c(=O)c3ncccc3n(Cc3ccc(Oc4ccccc4)cc3)c2=O)C1` (stereo not drawn) is recorded as -2.41 (Rec1; measured: IGKV3-20; concentration not given; baseline: untreated).
The fold change of `COC(=O)c1cc(NC2=NC(=O)C(=Cc3ccc(N(C)C)cc3)S2)ccc1OC(C)=O` is reported as 0.369 (MCF7; measured: UBE2N mRNA; 0.81 µM (IC50), 24 h; baseline: DMSO).
The growth percent of `CN(C)CCN1CCN(c2ccc3nc(-c4ccc5nc(-c6ccc(C(F)(F)F)cc6)[nH]c5c4)[nH]c3c2)CC1` is reported as -4.2% (Malme-3M; SRB; 10 µM, 48 h).
`CC[C@H](C)C(=O)O[C@H]1C[C@@H](C)C=C2C=C[C@H](C)[C@H](CC[C@@H]3CC=CC(=O)O3)[C@H]21`: “basal short-circuit current” “no effect” (T84; 0.1 and 5 µM).
The IC50 of `O=C(NCc1cc(F)cc(F)c1)[C@@]1(O)CCN(c2ccc3[nH]ccc3c2)C1=O` is reported as > 10000 nM (CXF1103; colony formation).
`CCOc1cncc(-c2ccc(NC(=O)C3(c4ccnc(NS(=O)(=O)C5CC5)n4)CCOCC3)nc2)n1` gave an IC50 of 103 nM (CAL-51; cell growth or viability, ATP luminescence; 72 h).
`COc1ccccc1-c1ccncc1C(=O)Nc1nnc(OCc2ccc(Cl)cc2)s1` has a colony survival of 94.8% (MDA-MB-231; 0.1875 µM, mean of 3 replicates; baseline: untreated).
`CC(C)(C)n1cc(CN(Cc2cn(CC(=O)O)nn2)Cc2cn(C(C)(C)C)nn2)nn1` — result for “amount of CuAAC product”: 2.22 pg/µg protein and 2.28 pg/µg protein and 1.75 pg/µg protein (OVCAR-5, HPG-labelled; live-cell CuAAC reaction, LC-ESI-MS/MS; cytosolic proteins; concentration not given, together with: NEM 100 µM, 10 min pretreatment).
Under “mean growth percent”, `Cc1c(Cl)cccc1Nc1ccccc1C(=O)[Se]CC(=O)Nc1cccc(C(F)(F)F)c1` is recorded as -27.4% (NCI60 colon subpanel; cell growth; 10 µM, 48 h, one-dose).
With `CCN(CC)CCNC(=S)Nc1ccc2nc(N3CCN(CC)CC3)cc(C)c2c1` the GFP-positive cells was 6.2% (U2OS HDR-GFP reporter; homology-directed repair, flow cytometry; 15 µM).
The surface-bound fraction of `COc1cccc(OC)c1-c1cc(C(=O)NC2(C(=O)O)C3CC4CC(C3)CC2C4)nn1-c1ccc(C(=O)NCCNC(=O)[C@H](CCCCNC(=O)[C@H](CC(C)C)NC(=O)C2OC2C(=O)O)NC(=O)CN2CCN(CC(=O)[O-])CCN(CC(=O)[O-])CCN(CC(=O)[O-])CC2)cc1C(C)C.[177Lu+3]` (mixture of isomers) is reported as 1.63 ± 0.26% (HT-29; concentration not given, 120 min; baseline: added activity).
Under “mean neuron degeneration”, `C=CC(=O)N1[C@H](c2ccc3c(c2)OCO3)c2[nH]c3ccccc3c2C[C@@H]1C(=O)NC` is recorded as 76.8% (rat DRG neurons; 0.01372 µM, 48 h, together with: vincristine 40 nM).
`CCN(C(=O)c1cc(F)ccc1Oc1nncnc1N1CCC2(C1)CN([C@H](CCCN(C)CCOC)C(C)C)C2)C(C)C` gave a GI50 of > 10000 nM (T24; cell growth or viability; 7 days).
